# Measured values pooled from the literature.
# Every numbered part comes from another study and shows a few of its results, in no order.

# Block 1 — technique: protein binding microarray; molecule type: double-stranded DNA, one strand shown; sample: in vitro; concentration: not given; relative to: not given; reading: higher = stronger binding
# Target: Histone acetyltransferase KAT6A, winged helix 1, GST fusion (KAT6A, Homo sapiens, UniProt Q92794, residues 1-85)
# Notes: 8-mer, flanks averaged, mean of 2 arrays, mostly near background
# Construct (chain): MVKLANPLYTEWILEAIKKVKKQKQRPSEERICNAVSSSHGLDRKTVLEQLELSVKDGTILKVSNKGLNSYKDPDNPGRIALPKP
Sequence,E-score
TCAGGACA,-0.273
ACTTGGTA,-0.116
ACGGCGGA,0.359
ATATAGTA,-0.197
CGCCGGGA,0.44
GTCCTGGA,-0.164
AATGTGCG,0.173
CTATGGAA,-0.145
GCATCTTA,-0.0563
CATCCGCG,0.3
AGCTACTC,-0.139
AGGAGGGG,-0.244
AGCGGGAC,0.327
GACGAACA,0.103
CACCGCCA,-0.0129
CACCGCGG,0.381
ACGTGCAA,-0.142
GGAAATGA,-0.0789

# Block 2 — technique: RNA Bind-n-Seq; molecule type: RNA; sample: in vitro; concentration: 365 nM; relative to: no-protein control; reading: higher = stronger binding
# Target: RNA binding protein fox-1 homolog 2, RRM domain, GST-SBP tag (RBFOX2, Homo sapiens, UniProt O43251-10, residues 100-194)
# Notes: natural RNA segment, single round, ends assumed
# Constant ends, left off below: GGGAGUUCUACAGUCCGACGAUC … UGGAAUUCUCGGGUGCCAA
Sequence,RBNS enrichment (R)
AAACAGCAAGUGAUUUCAGAAUGUUGUAGGCCUCAUUAGAGCUUGGUCUCCAAAAAUCUGUUUGAAAAAAGCAACAUGUUCUUCACAGUGUUCCCCUAGAAAGGAAGAGA,0.606
UUGUGUGGCUGAUGUGUCUGGAAAUGAUGUAGUUCAGGAAAGCAUUUUUUUUUUCUUUGAACCUUAAAGGUUCUAUUAUUAAAAGCAGCACAGAUUCCACAUUUUUAUAC,0.877
GUCCAGUGGAGUGGGGGAAUGCUUCCAUUUGUUCUGCCCUCCCUUACUGCCCAGAAUGUUAGCAUAAAACAACACAGGAAGCUGAUAAAAAUAGCAGCUGUUGUUUCUCU,0.775
AGAAGCAAGCCUCUUACAUAUUAGGAAAAUACCUGAAAAGUUAGUUCAUUUGUCAGAUCCAGUUUUCCUACAUACAUCUUUGUUCACAGUAUGCUAAGGGGAAAAAAAAA,0.453
AUACAUUCAUAAGGAAAUGUGUGUUGUAACAAAUAUAUUGCAAAAACAUAGUUUGUAAAGGCAUUCUAUAAGCUAUUUAUGUAAAAUCAAUAAAAGUUGAUCAUAAUUAA,0.6
AGCACCAUUAGCACCACAGAAUUCACCCACUGCCUGUUUUUCCUUUUCCUUUCUCAAACCUACUCAAAUAAAAGGAUGAGGGUUAAGGGCAGGAAGUGGGAGGAUCUAAA,0.689
GCUGCUAAAUGCUAUCUUUAGGUGUGUGAAAGUUCUUUGAUAUGUUAUUGUCCUUUUACAUCUUGUUAAAUAGCCAUUGCUUUUGAGAAUCAGAUAGUGUGUUGUUUAGG,5.05
GCAGCCCGCCUUGUGCCUUAGCCCCGCCCAAGCCACCAGGGAGCCAAUCUCAGCCCUCCACGCCAAGGAGCCUUGCCCACCAGCCAAUCAAUGUUCGUCUCUGCCCUGAU,0.583
AAUGGAAAGAAGGAAAAAAGGAGGAUAGAAAAAGGAUGGAAGAAAGAAGCAUUGAAAACAAAGACAUUCUUCCCACUUCUUGGAUUUUUAAACCACAGUCUGGAGUGAUA,1.26
GUAAAAGCAAGGGGCCAGGAUUGUGCUGGCAGCCAGGGAGACAGUAGUGCCUGCGGAAGUUGGCAGAGGAGGCCUUGGCAUGCUCGCAUCCAGGCAGUCAUGUGUGAUGG,0.689
CAAGCUAGAGAUUUUCAAAGCUACCCUUUUGAGUAAAACCCCUUAUUAAAAGAGAAACCAUGACUGGGUUUUUGUUUGUUCCUUGUCUUUGGGAGUAGUGCAGGCCUUUU,0.74
UUUGAUCCUACCAAAACCACUGCUGCUGUUUCUGAGAAAAGAAAGCAUUUUAUUCACCUGCAAGAUCACAUCCCUAGCUUUGAUUUUGCUUAAAUGAUAGGGACUUAAGA,0.49

# Block 3 — technique: RNA Bind-n-Seq; molecule type: RNA; sample: in vitro; concentration: 200 nM; notes: whole 134-nt RNA, ends assumed; with: 150 mM LiCl; relative to: input library; reading: higher = stronger binding; each molecule: 7-deaza-guanosine replaces G
# Target: Ras GTPase-activating protein-binding protein 1, full length (G3BP1, Homo sapiens, UniProt Q13283)
# Sequence of UniProt Q13283 (whole entry, looked up): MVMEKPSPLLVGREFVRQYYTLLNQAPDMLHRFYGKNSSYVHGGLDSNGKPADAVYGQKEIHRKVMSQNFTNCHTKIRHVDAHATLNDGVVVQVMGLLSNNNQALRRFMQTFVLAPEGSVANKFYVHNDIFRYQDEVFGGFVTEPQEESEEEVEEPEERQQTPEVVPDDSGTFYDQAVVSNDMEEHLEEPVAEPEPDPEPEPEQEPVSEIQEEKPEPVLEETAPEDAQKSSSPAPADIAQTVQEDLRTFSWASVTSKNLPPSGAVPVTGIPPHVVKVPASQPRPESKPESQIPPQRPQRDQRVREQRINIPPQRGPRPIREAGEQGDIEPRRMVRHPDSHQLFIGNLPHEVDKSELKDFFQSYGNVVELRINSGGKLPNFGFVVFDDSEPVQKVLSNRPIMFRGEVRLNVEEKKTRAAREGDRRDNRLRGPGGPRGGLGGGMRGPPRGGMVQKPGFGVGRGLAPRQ
# Constant ends, left off below: GGGAGUUCUACAGUCCGACGAUC … UGGAAUUCUCGGGUGUCAAGG
Sequence,log2 enrichment
UCCUGUGCUACACAUCGUAUGUACCGAAUCGGGGUUUGGGGAAAGGGGUUUUUUUGGGGAAAGUAUUAUGUUACGCCGUUCGGAUCUGCA,0.295
CACAGACAACACGCACCCACACAGACACAGAGGGAAGGGGUUGGGAUGGGGACAGGGUGCACAGCAAAACGGGGUAGGACCCCAGCCCCU,0.131
CAAGUCCUGUGCUACACAUCGUAUGUACCGAAUCGGAAAGGAAAAAAAGGAAAGGAAAGUAUUAUGUUACGCCGUUCGGAUCUGCACUUC,-0.602
UAGUUUAUGCCAACGUGACUUCAUUCAUACAGAUGAACCAAGGAUCGGGAUAGCAGUAUAAAAUUAGAAUCAAGACAGCUGACUGCUCAG,-3.52
UAACUUUAGAGGAGGAUCUGAUGGAUAUAGCAGUGGACGUGGAUUUGGGGAUGGCUAUAAUGGGUAUGGAGGAGGACCUGGAGGUGGCAA,0.0999
UCAAGUCCUGUGCUACACAUCGUAUGUACCGAAUCGGGAAAGGGUGGGUUUGGGAAAGUAUUAUGUUACGCCGUUCGGAUCUGCACUUCC,-0.458
CCUGUGCUACACAUCGUAUGUACCGAAUCGGGGCCCCCCGGGCCCCCCGGGGCCCCCCGGGAAAGUAUUAUGUUACGCCGUUCGGAUCUG,-1.13
ACCAUGCAGGUGGGCAUCUUUGGGACGUGGGGCAAGGGGGGGAUAGGGAGGGGGGUAACACUUUGGGAACAGGUGGUCCCAGGUCGUUUC,0.24
GUCCUGUGCUACACAUCGUAUGUACCGAAUCGGAAAAAGGGGAAAAAGGGAAAAAGGGGAAAGUAUUAUGUUACGCCGUUCGGAUCUGCA,-0.0809
UCCUGUGCUACACAUCGUAUGUACCGAAUCGGGAAAAAAGGAAAAAAGGGAAAAAAGGGGAAAGUAUUAUGUUACGCCGUUCGGAUCUGC,-0.441
UCAAGUCCUGUGCUACACAUCGUAUGUACCGAAUCGGUUUGGUUUUUGGUUUGGAAAGUAUUAUGUUACGCCGUUCGGAUCUGCACUUCC,-0.557

# Block 4 — technique: protein-binding microarray; molecule type: double-stranded DNA, one strand shown; sample: in vitro; concentration: not given; reading: higher = stronger binding
# Target: Hepatocyte nuclear factor 3-beta, forkhead domain (FOXA2, Homo sapiens, UniProt Q9Y261, residues 142-269)
# Notes: k-mer, scored over probes, only values ≥0.25
# Residues (chain): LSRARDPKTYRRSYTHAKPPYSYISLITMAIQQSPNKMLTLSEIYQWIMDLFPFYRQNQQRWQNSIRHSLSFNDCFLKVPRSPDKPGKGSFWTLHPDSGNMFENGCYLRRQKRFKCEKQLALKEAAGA
Sequence,E-score
TACCTATA,0.254
TGTCCACA,0.343
AACAAACA,0.398
AAGCATAT,0.313
ACCATTAA,0.273
TACGGATA,0.339
GACATATA,0.302
ACAATTAC,0.276
AATTAGAC,0.301
ACCTGTAT,0.302
CAATTTAA,0.261
TACACAGA,0.287
ATACTGTA,0.322
ATGTTTAC,0.391
AATACGTA,0.261
TATCTACA,0.365
ATATACCG,0.273
ATCGTAAT,0.287
ACCAATAC,0.28
TAACGTAA,0.268
CATATAAA,0.324
TTAGCAAA,0.267
CTACAGAA,0.259
GTGAATAA,0.265
ACAATGAA,0.325

# Repeated from above (block 1):
Sequence,E-score
ATATAGTA,-0.197
CGCCGGGA,0.44
GTCCTGGA,-0.164
AATGTGCG,0.173
CTATGGAA,-0.145
GCATCTTA,-0.0563
CATCCGCG,0.3
AGCTACTC,-0.139
AGGAGGGG,-0.244
AGCGGGAC,0.327
GACGAACA,0.103
